Results from different studies.
Every numbered part comes from another study and shows a few of its results, in no order.

Block 1
Target: Sal-like protein 4, full length isoform B (SALL4, Homo sapiens, UniProt Q9UJQ4-2, residues 1-616)
Technique: universal PBM
Form: double-stranded DNA, one strand shown
Medium: in vitro
Concentration: not given
Setting: 8-mer, flanks averaged, mean of replicates
Reading: higher = stronger binding
Target sequence (chain): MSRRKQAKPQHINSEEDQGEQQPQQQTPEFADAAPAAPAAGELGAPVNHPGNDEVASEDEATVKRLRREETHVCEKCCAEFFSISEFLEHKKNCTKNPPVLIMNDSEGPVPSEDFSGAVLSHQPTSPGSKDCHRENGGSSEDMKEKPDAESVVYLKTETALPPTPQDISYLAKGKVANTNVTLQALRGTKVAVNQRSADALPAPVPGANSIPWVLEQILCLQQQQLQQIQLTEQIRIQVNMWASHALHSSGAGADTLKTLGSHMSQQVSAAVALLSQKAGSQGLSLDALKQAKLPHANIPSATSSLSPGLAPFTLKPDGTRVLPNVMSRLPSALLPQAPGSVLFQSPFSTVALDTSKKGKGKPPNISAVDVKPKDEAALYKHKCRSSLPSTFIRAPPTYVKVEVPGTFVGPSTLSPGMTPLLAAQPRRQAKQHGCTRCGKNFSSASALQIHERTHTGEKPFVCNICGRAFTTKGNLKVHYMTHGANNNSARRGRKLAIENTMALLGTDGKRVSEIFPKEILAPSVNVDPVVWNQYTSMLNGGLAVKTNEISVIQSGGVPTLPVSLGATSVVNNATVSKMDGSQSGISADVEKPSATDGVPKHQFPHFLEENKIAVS
Oligonucleotide | E-score
AAAGAGGC | -0.139
ATGAACGA | 0.18
AGCCGGCC | -0.301
CGCAACCG | -0.25
CGCATTAA | 0.264
ACGAGTGC | -0.0694

Block 2
Target: PABPC1L2, full length, GST fusion (mouse, UniProt A0ABA7IW68)
Technique: RNAcompete
Form: RNA
Medium: in vitro
Concentration: 20 nM
Setting: 7-mer, probes averaged, single round
Reference: mean of 7-mers
Reading: higher = stronger binding
Target sequence (chain): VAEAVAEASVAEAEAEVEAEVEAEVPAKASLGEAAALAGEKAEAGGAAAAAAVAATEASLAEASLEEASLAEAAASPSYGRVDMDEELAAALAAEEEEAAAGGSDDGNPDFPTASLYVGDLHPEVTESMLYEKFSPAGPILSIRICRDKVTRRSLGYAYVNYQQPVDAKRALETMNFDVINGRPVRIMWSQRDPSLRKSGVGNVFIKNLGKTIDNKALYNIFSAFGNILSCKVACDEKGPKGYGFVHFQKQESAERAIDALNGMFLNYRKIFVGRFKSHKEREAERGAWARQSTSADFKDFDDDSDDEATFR
Oligonucleotide | 7-mer Z-score
AGCGGGG | 0.361
UGUCCGA | -0.248
AUUUUGA | -0.0645
AUAGAUG | 0.0243
CUCAAGA | -0.0699

Block 3
Target: TAR DNA-binding protein 43, full length, His tag (TARDBP, Homo sapiens, UniProt Q13148, residues 1-414)
Technique: RNA Bind-n-Seq
Form: RNA
Medium: in vitro
Concentration: 20 nM
Setting: 6-mer, flanks averaged, single round
Added: 150 mM KCl
Reference: input library
Reading: higher = stronger binding
Oligonucleotide | 6-mer enrichment (R)
CGAGUU | 0.726
ACAGCA | 0.695
UUAGGA | 0.759
CCGGCA | 0.871

Further values, each from its own experiment
Molecule | target | assay | test system | setting | how to read | endpoint | value
PhoQ, residues 284 288 289 292 302 303 AMDMFI | PhoP, residues 12 14 15 18 19 VQGLL (Escherichia coli, UniProt P23836) | Sort-seq, refers to: YFP reporter | E. coli | PhoQ-PhoP variant library, added: 10 µM Mg2+ | reference: high Mg2+ state, higher = stronger signaling | fold induction | 0.505

A few entries again (block 2):
Oligonucleotide | 7-mer Z-score
AUAGAUG | 0.0243
CUCAAGA | -0.0699
